# Assay results collected from several papers.
# Each numbered part is a random draw from the data of one study; scales do not carry over between parts.
# UniProt P10721, sequence (whole entry, unmodified, looked up): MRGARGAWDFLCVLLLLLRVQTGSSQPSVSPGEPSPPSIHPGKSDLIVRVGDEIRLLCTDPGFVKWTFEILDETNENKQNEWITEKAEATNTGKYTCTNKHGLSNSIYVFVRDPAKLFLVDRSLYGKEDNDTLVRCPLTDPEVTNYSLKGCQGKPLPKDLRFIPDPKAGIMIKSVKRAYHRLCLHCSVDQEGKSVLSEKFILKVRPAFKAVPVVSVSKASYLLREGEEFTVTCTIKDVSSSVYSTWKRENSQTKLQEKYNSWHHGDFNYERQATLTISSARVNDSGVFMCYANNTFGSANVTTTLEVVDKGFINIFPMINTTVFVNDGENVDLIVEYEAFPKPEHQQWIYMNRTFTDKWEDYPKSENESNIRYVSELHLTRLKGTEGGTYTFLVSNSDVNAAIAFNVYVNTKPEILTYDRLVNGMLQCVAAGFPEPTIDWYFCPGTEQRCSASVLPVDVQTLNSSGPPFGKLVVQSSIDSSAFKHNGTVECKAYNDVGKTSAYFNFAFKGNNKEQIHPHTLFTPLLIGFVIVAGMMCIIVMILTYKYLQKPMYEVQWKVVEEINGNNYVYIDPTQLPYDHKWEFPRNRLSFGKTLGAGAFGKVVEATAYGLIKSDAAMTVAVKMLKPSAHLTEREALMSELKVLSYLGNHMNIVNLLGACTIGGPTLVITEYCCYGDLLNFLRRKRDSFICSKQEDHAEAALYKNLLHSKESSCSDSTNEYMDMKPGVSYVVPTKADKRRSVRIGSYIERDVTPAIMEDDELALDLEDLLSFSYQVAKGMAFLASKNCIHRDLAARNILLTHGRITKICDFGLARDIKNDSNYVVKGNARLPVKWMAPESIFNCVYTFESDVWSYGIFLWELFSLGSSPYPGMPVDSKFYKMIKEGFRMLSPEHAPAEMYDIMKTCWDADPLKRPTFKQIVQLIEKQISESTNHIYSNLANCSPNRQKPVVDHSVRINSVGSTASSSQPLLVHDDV
# UniProt P51813, sequence (whole entry, looked up): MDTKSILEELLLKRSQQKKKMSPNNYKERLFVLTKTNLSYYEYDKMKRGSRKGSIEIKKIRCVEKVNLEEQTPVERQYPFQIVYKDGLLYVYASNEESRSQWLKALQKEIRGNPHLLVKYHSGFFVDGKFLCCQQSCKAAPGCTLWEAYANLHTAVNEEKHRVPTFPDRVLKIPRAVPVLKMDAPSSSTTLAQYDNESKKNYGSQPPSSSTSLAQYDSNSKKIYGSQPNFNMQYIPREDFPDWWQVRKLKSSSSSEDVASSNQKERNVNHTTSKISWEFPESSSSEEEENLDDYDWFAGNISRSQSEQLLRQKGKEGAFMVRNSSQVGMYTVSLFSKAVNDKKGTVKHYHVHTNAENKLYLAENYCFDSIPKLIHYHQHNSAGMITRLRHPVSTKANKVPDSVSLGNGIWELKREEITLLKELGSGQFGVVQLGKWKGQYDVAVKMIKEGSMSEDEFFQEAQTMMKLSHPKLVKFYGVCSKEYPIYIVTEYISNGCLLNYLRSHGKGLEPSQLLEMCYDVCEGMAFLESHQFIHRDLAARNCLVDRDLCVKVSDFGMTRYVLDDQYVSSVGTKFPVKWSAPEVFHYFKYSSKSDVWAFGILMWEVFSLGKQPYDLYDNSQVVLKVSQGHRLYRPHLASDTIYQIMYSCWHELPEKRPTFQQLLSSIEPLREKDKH
# UniProt Q9UQM7, sequence (whole entry, looked up): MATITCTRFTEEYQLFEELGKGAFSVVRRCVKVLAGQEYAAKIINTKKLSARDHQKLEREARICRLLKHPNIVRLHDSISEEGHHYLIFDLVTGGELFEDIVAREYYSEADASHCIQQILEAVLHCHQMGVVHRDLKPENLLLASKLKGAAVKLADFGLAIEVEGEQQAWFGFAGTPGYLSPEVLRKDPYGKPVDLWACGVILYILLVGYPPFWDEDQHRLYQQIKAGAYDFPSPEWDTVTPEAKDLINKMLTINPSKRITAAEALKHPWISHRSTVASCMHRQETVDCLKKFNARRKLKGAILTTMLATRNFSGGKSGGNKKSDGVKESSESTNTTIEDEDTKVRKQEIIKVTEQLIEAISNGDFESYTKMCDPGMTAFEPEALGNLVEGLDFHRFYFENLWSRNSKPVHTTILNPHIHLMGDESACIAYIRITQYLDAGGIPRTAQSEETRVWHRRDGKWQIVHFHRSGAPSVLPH

# Study 1
# Target: RING finger protein unkempt homolog, zinc fingers 1-6, GST-SBP tag (UNK, Homo sapiens, UniProt Q9C0B0, residues 30-357)
# Method: RNA Bind-n-Seq
# Molecule type: RNA
# Matrix: in vitro
# Tested at: not given
# Setting: RNA with constant flanks, human and mouse sites, ends assumed
# Relative to: input RNA pool
# Reading: higher = stronger binding
# Residues (chain): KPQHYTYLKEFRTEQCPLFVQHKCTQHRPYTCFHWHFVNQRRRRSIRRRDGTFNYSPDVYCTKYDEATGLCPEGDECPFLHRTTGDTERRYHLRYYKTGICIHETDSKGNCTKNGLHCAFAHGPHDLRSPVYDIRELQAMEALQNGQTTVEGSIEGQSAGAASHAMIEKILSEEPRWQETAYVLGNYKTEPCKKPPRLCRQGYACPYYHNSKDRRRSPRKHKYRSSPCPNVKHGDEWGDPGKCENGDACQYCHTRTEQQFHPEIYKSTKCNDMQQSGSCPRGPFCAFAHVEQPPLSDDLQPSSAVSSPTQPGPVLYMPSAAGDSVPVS
Sequence,bound/input enrichment
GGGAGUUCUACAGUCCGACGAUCUACUGAACUGAACCUGUAAGCCAGCCCCAAUUAAAUGUUGUCCUUAGAAGAGUUGCUUUGGUCAUGGUGUCUGUUCUCAGCGAGGAAAACCCUAGCCAAGAUAGAUGCAAAAGAAAGGAGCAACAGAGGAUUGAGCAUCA,0.259 ratio
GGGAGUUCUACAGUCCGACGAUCGUGGACAUGGCGGCACAGGUUGCUGCAGGAAUGGCUUACAUCGAGCGCAUGAAUUAUAUCCACAGAGAUCUGCGAUCAGCAAACAUUCUAGUGGGGAAUGGACUAAUUUGCAAGAUUGCUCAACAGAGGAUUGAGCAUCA,0.469 ratio
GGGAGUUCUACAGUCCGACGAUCUACCUAGAGAAUAUAUAUCCUGAUUCUCAAAUUCCACGUCACUAUUUCUCAUUGGGAGAGAUACGAAAUGUGGAAACGAAUCAGUGUCUAGAUAACAUGGCUAGAAAAGAGAAUGAAAAACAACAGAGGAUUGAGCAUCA,0.597 ratio
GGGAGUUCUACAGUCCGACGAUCAUUAAAGUUUUUCAAAUCUGUAAACAAAGCAAAAAAGUAAAUUGUAGUCAUUUGAUUAUUUUUUAAAUUGGUGCUUUAUAUUUUGUUCUCACUCAGAGUAAAAGCUGCAAUUUAUUGUUCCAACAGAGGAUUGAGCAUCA,0.563 ratio
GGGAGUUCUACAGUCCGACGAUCCGGAACACGAUCGCCUCCAUCGCUGCUGGCGUUCUAUUUUUCACGGGAUGGUGGAUCAUCAUAGACGCGGCUGUCAUGUACCCCAGGAUGGAUCAAUUCAACCAUUCAUACCAUACCUGUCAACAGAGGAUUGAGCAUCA,0.0953 ratio
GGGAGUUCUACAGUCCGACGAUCGAAAAGGUGGAACUAGUAACAGGAGAAGAAGAUGAAAAAGUUUUGUAUUCACAAAGGGUGAAAUUAUUUAGAUUUGAUGCUGAGAUAAGUCAGUGGAAAGAAAGGGGUUUGGGGAAUUUACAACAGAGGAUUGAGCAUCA,3.99 ratio
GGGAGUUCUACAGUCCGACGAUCGAUACUGGUAAACUGACUGGCGGAUCAUUUACCAUGAAAUACCAUGAUAUGCCUGACGUUAUAGAUUUCCUAGUCUUGAGACAACAAUUUGAUGAUGCAAAAUACAGGCGAUGGAAUAUACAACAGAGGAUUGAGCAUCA,0.441 ratio
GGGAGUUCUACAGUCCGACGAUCAGUAGUUUUAAGCUUGUUUGCACAGUUCUUUUUUUCCAUUGGAAAUGGAAUUCAUUGCCUUAGGUCUUUUUAAAUAGUGUAUUAUUAUCGUUGGGGCUGGCUCUAUGCUUGAAAACCAGUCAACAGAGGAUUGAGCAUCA,31.6 ratio

# Study 2
# SMILES: CNC(=O)Nc1ccc2c(c1)[C@@]1(CC2)OC(=O)N(CC(=O)N(Cc2ccc(F)cc2)[C@@H](C)C(F)(F)F)C1=O
# Observed: cell-free assay
# Method: competition with immobilised ligand
# Tested at: 1 µM
target,remaining binding [%]
"KIT (Homo sapiens, UniProt P10721, V559D/V654A)",83
"BMX (Homo sapiens, UniProt P51813)",99
"CAMK2A (Homo sapiens, UniProt Q9UQM7)",100
"EGFR (Homo sapiens, UniProt P00533, del752-759)",100

# Study 3
# Target: Hepatocyte nuclear factor 3-beta, forkhead domain (FOXA2, Homo sapiens, UniProt Q9Y261, residues 142-269)
# Method: protein-binding microarray
# Molecule type: double-stranded DNA, one strand shown
# Matrix: in vitro
# Tested at: not given
# Setting: k-mer, scored over probes, only values ≥0.25
# Reading: higher = stronger binding
# Construct (chain): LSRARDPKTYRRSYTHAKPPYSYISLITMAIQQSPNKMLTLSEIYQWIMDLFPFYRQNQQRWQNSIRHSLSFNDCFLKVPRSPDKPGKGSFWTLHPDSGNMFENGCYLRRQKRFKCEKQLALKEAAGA
Sequence,E-score
AAATATCA,0.287
GCATACAA,0.274
TTAATCAA,0.32
ACATATTC,0.379
ACCAATAT,0.272
TAAACTAA,0.269
ATGACTTA,0.261
ATATAACG,0.316

# Study 4
# Target: Protein-tyrosine kinase 6 (PTK6, Homo sapiens, UniProt Q13882)
# UniProt Q13882, sequence (whole entry, looked up): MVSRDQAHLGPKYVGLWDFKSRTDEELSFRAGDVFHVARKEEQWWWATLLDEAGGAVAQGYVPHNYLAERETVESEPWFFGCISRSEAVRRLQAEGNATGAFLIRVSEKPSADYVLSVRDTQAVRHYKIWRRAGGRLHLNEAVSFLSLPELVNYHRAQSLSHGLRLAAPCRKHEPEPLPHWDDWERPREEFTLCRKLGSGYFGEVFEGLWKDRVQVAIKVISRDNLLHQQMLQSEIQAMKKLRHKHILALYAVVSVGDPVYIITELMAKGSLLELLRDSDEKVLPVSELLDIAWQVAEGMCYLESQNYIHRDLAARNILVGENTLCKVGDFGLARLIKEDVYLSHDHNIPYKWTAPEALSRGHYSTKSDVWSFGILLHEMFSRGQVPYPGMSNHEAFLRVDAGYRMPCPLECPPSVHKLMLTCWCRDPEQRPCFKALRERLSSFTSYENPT
# Observed: enzyme activity
# Mode: inhibitor
# Tested at: 0.5 µM
# Relative to: control
Structure (SMILES),remaining activity [%]
Cc1cc(Nc2nc(-c3ccccc3)nc3ccccc23)n[nH]1,61.6
O=C1Cc2c([nH]c3ccc([N+](=O)[O-])cc23)-c2ccccc2N1,92.7
COc1ccc(S(=O)(=O)N(CCO)c2ccccc2CN(C)CC=Cc2ccc(Cl)cc2)cc1,89.3
Oc1ccc(Nc2nc(-c3ccc(Cl)cc3)cs2)cc1,87.4
CC(=O)c1ccc(N2CCOCC2)cc1O,104
CC(C)(C)n1nc(Cc2cccc3ccccc23)c2c(N)ncnc21,19.2
CSc1nc(-c2ccnc(N[C@@H](C)c3ccccc3)c2)c(-c2ccc(F)cc2)[nH]1 (racemic),96.8
N#CC(=C(N)Sc1ccc(N)cc1)c1ccccc1C(F)(F)F,97.6
COc1cc(Nc2c(C#N)cnc3cc(OCCCN4CCN(C)CC4)c(OC)cc23)c(Cl)cc1Cl,93.1
O=S(=O)(NCCNC/C=C/c1ccc(Br)cc1)c1cccc2cnccc12,94.2
CCCC(=O)Oc1ccc2[nH]c(C(=O)c3cc4ccccc4[nH]3)cc2c1,85.4

# A few entries again (study 3):
Sequence,E-score
AAATATCA,0.287
ACCAATAT,0.272
TTAATCAA,0.32
TAAACTAA,0.269
